Experimental data pooled from the literature.
Lines come from different studies, so protocols differ. ± marks the error that the study gave.
UCHL1: Ubiquitin carboxyl-terminal hydrolase isozyme L1 (UCHL1, Homo sapiens, UniProt P09936)
Chain of UniProt P09936 (whole entry, looked up): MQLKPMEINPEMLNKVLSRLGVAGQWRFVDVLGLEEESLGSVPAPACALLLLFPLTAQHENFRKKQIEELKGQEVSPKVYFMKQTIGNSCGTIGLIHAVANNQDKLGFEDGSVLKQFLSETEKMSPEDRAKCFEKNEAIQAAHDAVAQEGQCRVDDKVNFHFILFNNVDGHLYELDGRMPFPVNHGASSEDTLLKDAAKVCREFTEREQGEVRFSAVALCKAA

Compound	target or system	assay	system	setting	measurement	result
COCCc1ccc(OCC(O)CNC(C)C)cc1 (centres unmarked)		n-hexane/buffer partitioning	aqueous	pH 6	pKa	9.58 ± 0.05
N=C(N)c1ccc2cc(C#Cc3cccc(OC4CCCC4)c3)ccc2c1					pKa	10.9
C=CC(=O)Nc1cc(Nc2nccc(-c3cn(C)c4ccccc34)n2)c(OC)cc1N(C)CCN(C)C					pKa	4.4
CN(C)c1cc(-c2ccncc2)c(-c2cccc3ccccc23)nn1					pKa	< 3.5
CCCCC1=NC2(CCCC2)C(=O)N1Cc1ccc(-c2ccccc2S(=O)(=O)Nc2noc(C)c2C)c(COCC)c1				acidic	pKa	5.31
CC(C)(C)N1Cc2cccc(n2)CN(C(C)(C)C)Cc2cccc(n2)C1			0.1 M NaCl	25 °C, HL+ deprotonation	pKa	11.2
COc1ccc(NC(=O)c2ccco2)cc1NC(=O)c1cccnc1					pKa	2.99
C=C(F)C(=O)N1CCN(c2nc(OC[C@@H]3CCCN3C)nc3c2CCN(c2cccc4cccc(Cl)c24)C3)C[C@@H]1CC#N		potentiometric		second basic pKa	pKa	8.82
C=CC(F)(F)Oc1cccc(C(=O)O)c1		UV-metric		25 °C, aqueous extrapolated	pKa	3.7
CCCCCCCCCCCCCCN				extrapolated from shorter analogues	pKa	10.6
O=C(O)CNC(=O)c1ncc(-c2ccc(Cl)cc2)cc1O				second acidic centre	pKa	7.4
C#CC(=O)N1CCC(N2CCN(Cc3ccc(C)cc3)C2=O)C1 (centres unmarked)	UCHL1	covalent, intact protein LC-MS		12.5 µM	labelling	10.9%
COc1cc(O)c2nc(C)ccc2c1		capillary electrophoresis			pKa	9.4
O=c1[nH]ncn1-c1ccc(N2CCN(c3ccc(OCC4COC(Cn5cncn5)(c5ccc(Cl)cc5Cl)O4)cc3)CC2)cc1 (centres unmarked)					pKa	2.91
Nc1nc2c(nc([N+](=O)[O-])n2[C@@H]2O[C@H](CO)[C@@H](O)[C@H]2O)c(=O)[nH]1		UV absorption, item: N1 deprotonation	water	25 °C	pKa	8.45
COc1cc(OC)c(NC(=O)CSc2nnc(-c3ccncc3)n2C)cc1Cl					pKa	3.49
CCCCCCCCCCNC		extrapolated from shorter analogues			pKa	10.8
COc1cc(C)c2cc(C3(NS(=O)(=O)c4ccccc4-c4ccccc4)COC3)oc2c1				acidic	pKa	10.4
O=C(NCc1nc(-c2ccc(C(F)(F)F)cc2)cs1)[C@H]1CCCN(C(=O)CO[C@H]2CCCNC2)C1		potentiometric titration			pKa	9.7

Compound	target or system	assay	system	setting	measurement	result
CCCCCCCCCCCCCCCCN(C)C		extrapolated from shorter analogues			pKa	10
Cc1ccccc1CN1C(=O)C2=C(CCN(Cc3ccccc3)C2)N2CCN=C12		potentiometric titration	water	second of two pKa	pKa	4.99
CN1CCC(COc2cnc(-c3cccc(Cn4nc(-c5cccc(C#N)c5)ccc4=O)c3)nc2)CC1				pKa 1	pKa	9.5
N[C@@H](CC(=O)O)C(=O)OC(C(=O)O)c1cc2c(cc1[N+](=O)[O-])OCO2 (mixture of isomers)		pH-rate profile of hydrolysis, item: benzylic carboxylic acid	aqueous buffer, 12.5% DMSO-d6		pKa	5.8 to 7
O=C(NCCN1CCCC1)c1cc(-c2ccc(CN3CCOCC3)cc2)nc2ccc(F)cc12		potentiometric titration	water with 10% DMSO	first pKa	pKa	8.71 ± 0.11
CCn1c(SCC(=O)Nc2cccc(OC)c2)nnc1-c1ccncc1					pKa	3.1
CCCC[P+](/C=C(/c1ccccc1)c1cc(Cl)ccc1O)(CCCC)CCCC		capillary electrophoresis		20 °C	pKa	8.56
Cn1c(COc2cccc3cccnc23)nnc1SCC(N)=O					pKa	4.26
O=C(O)c1ccc2nc(-c3cc(Cl)cc(Cl)c3)oc2c1		in-house determination			pKa	3.6
O=C(O)CNC(=O)c1ncc(-c2cccc(Cl)c2)cc1O				second acidic centre	pKa	7.3
N#CC(=Cc1cccc(O)c1)C(=O)Nc1ccccc1C(F)(F)F	UCHL1	covalent, intact protein LC-MS		12.5 µM	labelling	9.56%
O=C1c2c(O)cc(O)cc2O[C@H](c2cc(O)c(O)c(O)c2)[C@H]1O		potentiometric titration	25, 50 and 75% methanol v/v	with: sodium hydroxide titrant	pKa	7.9
O=C(O)CNC(=O)c1ncccc1O				second acidic centre	pKa	7.6
NC(=O)c1ccc(NCCCN2CCOCC2)c([N+](=O)[O-])c1					pKa	6.91
CCn1cc(C)c2c([C@H](N)c3ccc(C(F)(F)F)nc3)n(C)nc2c1=O		potentiometric titration			pKa	4.14
O=C(Nc1cc(C2CCCCC2)[nH]n1)c1ccc(Br)cc1					pKa	4.35
CCCCCCCCN(C)C				extrapolated from shorter analogues	pKa	10
O=C(Nc1ccc(S(=O)(=O)Nc2ncccn2)cc1)c1c(Cl)cccc1Cl					pKa	5.66
Cc1nc(C(=O)NCC(=O)O)c(O)c2ccc(Oc3ccccc3)cc12				second acidic centre	pKa	8.6

A few entries again:
Compound	target or system	assay	system	setting	measurement	result
O=C(O)c1ccc2nc(-c3cc(Cl)cc(Cl)c3)oc2c1		in-house determination			pKa	3.6
N=C(N)c1ccc2cc(C#Cc3cccc(OC4CCCC4)c3)ccc2c1					pKa	10.9
NC(=O)c1ccc(NCCCN2CCOCC2)c([N+](=O)[O-])c1					pKa	6.91
CCn1cc(C)c2c([C@H](N)c3ccc(C(F)(F)F)nc3)n(C)nc2c1=O		potentiometric titration			pKa	4.14
